Results gathered from unrelated publications.
A part holds a random share of what one study measured. Changes are numbered by the printed parent chain.

Block 1
Target: Histone acetyltransferase KAT6A, winged helix 2, GST fusion (KAT6A, Homo sapiens, UniProt Q92794, residues 85-181)
Technique: protein binding microarray
Molecule type: double-stranded DNA, one strand shown
Sample: in vitro
Tested at: not given
Setting: 8-mer, flanks averaged, mean of 2 arrays, mostly near background
Reference: not given
Direction: higher = stronger binding
Quantity: E-score
Target sequence (chain): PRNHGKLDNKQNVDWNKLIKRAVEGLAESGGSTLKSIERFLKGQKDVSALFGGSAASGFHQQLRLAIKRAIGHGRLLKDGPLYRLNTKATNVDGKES
AGGGACAC: 0.148
CTTGCGTC: 0.104
CCAAGTGG: 0.102
CAGCTGGG: 0.0126
CGCGATGC: 0.148
GCAACCAA: 0.127
CTAAATAG: -0.0104
TCCGTACA: -0.0356
CCCGTTTA: -0.00874
ATTTTCGG: 0.0228
CCGTACAG: -0.168
CATGGGAC: -0.15
TAGCATAA: -0.109
AGTCACTG: -0.0336
TCTAGAAA: 0.0152
CCTAATGA: -0.0866
CGTGGCAA: 0.00626
GACACTGA: 0.0645
ACCGAGAG: 0.154
CCCCCCAG: -0.0725

Block 2
Target: Ras GTPase-activating protein-binding protein 1, C-terminal RGG region (G3BP1, Homo sapiens, UniProt Q13283)
Chain of UniProt Q13283 (whole entry, looked up): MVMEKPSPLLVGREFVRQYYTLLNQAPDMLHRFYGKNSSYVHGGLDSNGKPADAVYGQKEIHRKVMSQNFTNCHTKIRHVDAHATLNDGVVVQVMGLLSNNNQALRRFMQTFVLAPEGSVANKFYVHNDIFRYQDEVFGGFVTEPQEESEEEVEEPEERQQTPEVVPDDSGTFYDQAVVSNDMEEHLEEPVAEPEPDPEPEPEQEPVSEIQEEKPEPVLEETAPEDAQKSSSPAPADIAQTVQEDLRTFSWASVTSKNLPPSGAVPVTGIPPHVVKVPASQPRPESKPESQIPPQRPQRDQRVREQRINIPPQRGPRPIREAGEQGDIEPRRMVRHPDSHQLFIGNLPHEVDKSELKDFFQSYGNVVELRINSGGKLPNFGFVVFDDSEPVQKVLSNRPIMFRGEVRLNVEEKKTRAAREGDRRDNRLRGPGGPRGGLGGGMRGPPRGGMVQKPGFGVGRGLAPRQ
Technique: RNA Bind-n-Seq
Molecule type: RNA
Sample: in vitro
Tested at: 1 µM
Setting: whole 134-nt RNA, ends assumed
Together with: 150 mM KCl
Reference: input library
Direction: higher = stronger binding
Quantity: log2 enrichment
Shared flanks, not repeated: GGGAGUUCUACAGUCCGACGAUC … UGGAAUUCUCGGGUGUCAAGG
GCAGGAAGUAAAAACAAAUGGAAAUGCUUCGGAUAGUGGCAGGGGGGGGGGUUGCUAAGGAAAGGGUGGGAUGGGAGUGGGUAAAGAGUU: 0.889
AAGUCCUGUGCUACACAUCGUAUGUACCGAAUCGGGAAAGGGUGGGAAAAAAAGGGAAAGUAUUAUGUUACGCCGUUCGGAUCUGCACUU: 0.114
UGUGCUACACAUCGUAUGUACCGAAUCGGGUUUUUUUGGGUUUUUUUGGGGUUUUUUUGGGGAAAGUAUUAUGUUACGCCGUUCGGAUCU: -0.564
GCAGGAAGUAAAAACAAAUUGAAAUGCUUCGGAUAGUGGCAGGGGUGGGGGUUGCUAAGGAAAGGGUGGGAUGGGAGUGGGUAAAGAGUU: 1.86
UCCUGUGCUACACAUCGUAUGUACCGAAUCGGGUUUUUUUGGGAAAAAAAGGGUUUGGGAAAGUAUUAUGUUACGCCGUUCGGAUCUGCA: -0.918
CCUGUGCUACACAUCGUAUGUACCGAAUCGGGGCCCCCCGGGGCCCCCCGGGCCCCCCGGAAAGUAUUAUGUUACGCCGUUCGGAUCUGC: -1.68
AUUAAUUUGUACACAGACAGGGAAACUGGCAAGCUGAAGGGAGAGGCAACGGUCUCUUUUGAUGACCCACCUUCAGCUAAAGCAGCUAUU: -1.44
UGGGAGGUGGAUUAUGUUUAUUUUUUUAGCUCAUUUCCAGGGGUGGGAAUUUUUUUUUAAUAUGUGUCAUGAAUAAAGUUGUUUUUGAAA: 2.91
CUGUGCUACACAUCGUAUGUACCGAAUCGGGGAAAAAAAGGAAAAAAAGGAAAAAAAGGGGAAAGUAUUAUGUUACGCCGUUCGGAUCUG: -1.57

Block 3
Target: RNA binding protein fox-1 homolog 2, RRM domain, GST-SBP tag (RBFOX2, Homo sapiens, UniProt O43251-10, residues 100-194)
Technique: RNA Bind-n-Seq
Molecule type: RNA
Sample: in vitro
Tested at: 365 nM
Setting: natural RNA segment, single round, ends assumed
Reference: no-protein control
Direction: higher = stronger binding
Quantity: RBNS enrichment (R)
Shared flanks, not repeated: GGGAGUUCUACAGUCCGACGAUC … UGGAAUUCUCGGGUGCCAA
Construct (chain): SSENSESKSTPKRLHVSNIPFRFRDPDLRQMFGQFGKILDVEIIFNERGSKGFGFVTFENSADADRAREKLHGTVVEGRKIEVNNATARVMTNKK
AAGAGAACUGAGACUAAUGUAUUUUCCAAAAUUUCCUAAGGCUUUCCCCCGUUGUUUACAUGUUGAAAAGGAAAAUCACAAUCACUUGUAAAUGUGCCAUGCUCUGGUGG: 0.629
GUCUGCGGUCACAGUGGCCCCUGGGCAGGGGCACCCAGGCUGACCCUGAGGUGCUGCUGCUGGGUCUGUCUUGGCUCUGGGGUGUGCUGGGAGGGUCACCAGGUCCCUUU: 0.246
CCCCUCUACUGCUAUGUGGCUUCAACCAGCCUCACAGCCACACGGGGGAAGCAGAGAGUCAAGAAUGCAAAGAGGCCGCUUCCCUAAGAGGCUUGGAGGAGCUGGGCUCU: 1.64
CUCUGAAGUCAUUAACAUUGAAAUCUGCACCAGGAGGCAACAGGGGAAAAAAAAGUUUGAUCUUCUUUUCCAGUAGAGAAUAGUUUGUGAAAUGAUAAGGGCAUUCUAUC: 1.1
UAAAAUCUCAUUACUAUCUAUUAUUUAGUUCUAACACAGAAGCUUUAAAAAUACAUAGUCAUCCAAGGUUUUCUAAAAAUUGAAAUCAUAUGUUGGGAAUGGUAAAAAGG: 0.496
CUUUUCCCAAUCCUUUGCCCUCAAAUCAGUGACCCAAGGGAGGGGGGGAUUUAAAGGGAAGGAGUGGGCAAAACACAUAAAAUGAAUUUAUUAUAUCUAAGCUCUGUAGC: 2.4
GAAUGUAAUUUUCUCAGAAUUUACACUCAUUUGCAGUCAUUUAUUUCAAAAGAUAAAAGAGAAUAAUGGGUUCUUUGUAUUGGCACUUUGCACCAGAAGCAUAUCAUUAU: 0.854
UUUGUACAUGAAUGAUUCAAAAUCCAACCCACCAAAUGGUUACCCUGUAUUCCAGAAACUCACUUGAUUCUGUAUUGGUAAAUGCCUGGCUUCUUCACCAACUCCAUAGG: 25

Block 4
Target: PABPC1L2, full length, GST fusion (mouse, UniProt A0ABA7IW68)
Technique: RNAcompete
Molecule type: RNA
Sample: in vitro
Tested at: 20 nM
Setting: 7-mer, probes averaged, single round
Reference: mean of 7-mers
Direction: higher = stronger binding
Quantity: 7-mer Z-score
Target sequence (chain): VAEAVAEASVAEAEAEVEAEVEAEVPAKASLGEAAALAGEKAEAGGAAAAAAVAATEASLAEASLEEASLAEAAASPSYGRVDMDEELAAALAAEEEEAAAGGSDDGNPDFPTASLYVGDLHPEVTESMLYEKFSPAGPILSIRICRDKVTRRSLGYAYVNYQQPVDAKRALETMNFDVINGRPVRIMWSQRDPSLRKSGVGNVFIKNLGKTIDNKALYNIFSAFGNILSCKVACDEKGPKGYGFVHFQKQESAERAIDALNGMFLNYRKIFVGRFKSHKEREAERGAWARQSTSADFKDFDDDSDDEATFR
UCUACUC: -0.351
CGCACCG: -0.137
UCCUCCA: -0.307
AGUUCAA: -0.188
GCGUAAU: -0.179
AGCUAGU: -0.233
CCGCCCU: -0.543
UCUCCAU: -0.4
UCAUGCA: -0.209
GAUCCUU: -0.353
CGAUUGC: -0.249
GCAAAUU: 0.142
ACACGGA: 0.356
GUCAAUA: -0.238
ACGAUCA: -0.0337
ACCGUUC: -0.335
CCAGGCA: 0.113
UAUGGGA: 0.215
CGUGACU: -0.13
CCUCAGC: -0.354
UUCAACG: -0.124
GCAGCCU: -0.262
UAGGGCC: 0.0841
UGGCAGC: 0.0442
ACUUAUU: -0.199

Block 5
Target: CCNB3, cyclin fold, Cln2 fusion (human)
Technique: yeast growth competition, sequencing
Sample: yeast
Setting: weak parent motif
Reference: not given
Direction: higher = stronger binding
Quantity: normalised enrichment score
Starting sequence: CDKN1A docking peptide (human); SKACRRLFGPVDS
SKACRRLFGAVDS [P10A]: 0.345
SKACRRRFGPVDS [L7R]: 0.184
SRACRRLFGPVDS [K2R]: 0.243
SKAERRLFGPVDS [C4E]: -0.0603
SKACRNLFGPVDS [R6N]: 0.103
SHACRRLFGPVDS [K2H]: 0.578
SMACRRLFGPVDS [K2M]: 0.885
SKACRRLFAPVDS [G9A]: 0.679
SKACVRLFGPVDS [R5V]: 0.268
SKACRRLLGPVDS [F8L]: -0.323
SKACRRLFGPVHS [D12H]: 0.484
SKACRTLFGPVDS [R6T]: 1.03
SKACRRLFGPTDS [V11T]: 0.824
SKACRRLFVPVDS [G9V]: 0.457
SKNCRRLFGPVDS [A3N]: -0.272
SKACRRLFGPVYS [D12Y]: 0.561
SKACRRTFGPVDS [L7T]: 0.284
SKYCRRLFGPVDS [A3Y]: 0.199
SKACRKLFGPVDS [R6K]: 0.63
SKACRRLFGPVTS [D12T]: 0.481
SKACRGLFGPVDS [R6G]: -0.0734
SKMCRRLFGPVDS [A3M]: 0.547
SKACRRLTGPVDS [F8T]: -0.461
SKACRRSFGPVDS [L7S]: -0.0527
SKACRRLFGLVDS [P10L]: -0.133

Some of these lines once more (block 1):
CCAAGTGG: 0.102
CAGCTGGG: 0.0126
CGCGATGC: 0.148
GCAACCAA: 0.127
CTAAATAG: -0.0104
TCCGTACA: -0.0356
CCCGTTTA: -0.00874
ATTTTCGG: 0.0228
CCGTACAG: -0.168
CATGGGAC: -0.15
TAGCATAA: -0.109
AGTCACTG: -0.0336
TCTAGAAA: 0.0152
CCTAATGA: -0.0866
CGTGGCAA: 0.00626
